Results of several laboratories.
Compare with care: the assays were run in different laboratories. Numbers after ± are the reported error.

SMILES | test system | setting | Cmax
CC1=C2C[C@H]3[C@@H](CC[C@@H]4C[C@H](NS(C)(=O)=O)CC[C@@]43C)[C@@H]2CC[C@@]2(C1)O[C@@H]1C[C@H](C)CN[C@H]1[C@H]2C | patients, plasma | oral, 210 mg single, day -7, cycle 1 | 117 ng/mL
Cn1c(-c2ccc(C(N)=O)cc2F)nnc1C(C)(C)Oc1c(F)cc(Cl)cc1F | elderly non-Japanese subjects, plasma | oral, 20 mg single dose, day 1, median | 233 ng/mL
CO[C@H]1C[C@@H]2CC[C@@H](C)[C@@](O)(O2)C(=O)C(=O)N2CCCC[C@H]2C(=O)O[C@H]([C@H](C)C[C@@H]2CC[C@@H](O)[C@H](OC)C2)CC(=O)[C@H](C)/C=C(\C)[C@@H](O)[C@@H](OC)C(=O)[C@H](C)C[C@H](C)/C=C/C=C/C=C/1C | human, whole blood | oral, 35 mg, added: grapefruit juice | 130 ng/mL
O=c1[nH]c(=O)c(Cc2cccc(C(F)(F)F)c2)c([C@H]2CC[C@H](c3ccccc3)CC2)[nH]1 | human, fasted, plasma | oral, 100 mg single dose, geometric mean | 69.3 ng/mL
CC(C)[C@H](N)C(=O)NCCCS(=O)(=O)O | human, both sexes, plasma | oral, 172 mg capsule | 5440 ± 1670 ng/mL
CC(C)NC[C@@H](C(=O)N1CCN(c2ncnc3c2[C@H](C)C[C@H]3O)CC1)c1ccc(Cl)cc1 | human, moderate hepatic impairment (Child-Pugh), plasma | oral, 100 mg single dose, geometric mean | 89.1 ng/mL
Cc1cc(Nc2cc3ncccc3c(N[C@@H]3C[C@H]4CC[C@@H](C3)N4CCC#N)n2)n[nH]1 | Sprague-Dawley rat, female, plasma | oral, 30 mg/kg/day, last day of 13 weeks | 3.54 ng/mL
Cc1nc2cccc(OCC(C)(C)C(=O)NC(C)C)c2c(N)c1C(=O)O | male Sprague-Dawley rat, plasma | oral gavage, 100 mg/kg, day 7 | 118 ± 15.3 ng/mL
CCCC[C@H](NC(C)=O)C(=O)N[C@H]1CCC(=O)NC[C@@H](C(=O)N[C@@H](Cc2c[nH]c3ccccc23)C(N)=O)NC(=O)[C@H](CCCNC(=N)N)NC(=O)[C@@H](Cc2ccccc2)NC(=O)[C@H](Cc2c[nH]cn2)NC1=O | beagle dog, female, plasma | subcutaneous, 40.0 mg/kg daily, day 1 | 1010 ng/mL
O=C(CCCCCCC(=O)Nc1ccccc1)NO | patients, serum | oral, 600 mg, cycle 1, added: flavopiridol | 3.1 µM

A few entries again:
SMILES | test system | setting | Cmax
CC(C)[C@H](N)C(=O)NCCCS(=O)(=O)O | human, both sexes, plasma | oral, 172 mg capsule | 5440 ± 1670 ng/mL
CC(C)NC[C@@H](C(=O)N1CCN(c2ncnc3c2[C@H](C)C[C@H]3O)CC1)c1ccc(Cl)cc1 | human, moderate hepatic impairment (Child-Pugh), plasma | oral, 100 mg single dose, geometric mean | 89.1 ng/mL
